Measured values pooled from the literature.
Each line is one published result; not all experiments were run side by side. “And” joins repeats or separate records; there may be more than shown. ± marks the error that the study gave. Bridges are numbered along the chain shown (N, C = ends).
B1: disulfide; chain MRGSHHHHHHGSNEKGETSEKTIVRANGTRLEYTDIKSDGIEGRVDGGGGSDDDDKMACGYSSFNRCGGGS (disulfide 59-67 (inferred))

Molecule | tested on | assay | test system | conditions | measurement | result
Cc1ccc(S(=O)(=O)N2C(=O)CSC2c2ccccc2F)cc1 (stereo not shown) | herpes simplex virus 2 | viral cytopathicity | HEL, G | – | EC50 | > 100 µM
C[C@H](Cn1cnc2c(N)ncnc21)OCP(=O)(O)O | human alphaherpesvirus 2 | viral replication | human keratinocytes | – | EC50 | 193 ± 17 µg/mL
COc1nc(N)nc2c1ncn2CCC(COP(=O)(N[C@@H](C)C(=O)OCc1ccccc1)Oc1ccccc1)COP(=O)(N[C@@H](C)C(=O)OCc1ccccc1)Oc1ccccc1 (stereo partly shown) | human alphaherpesvirus 1 | viral replication | HEL, KOS | – | EC50 | > 100 µM
N=C(NO)NCC[C@H](N)C(=O)O | Leishmania mexicana | parasite growth, resazurin | – | 5 days, promastigote | EC50 | 3000 µM
Cc1ccc(S(=O)(=O)N2C(=O)CSC2c2cccc([N+](=O)[O-])c2)cc1 (stereo not shown) | HIV-2 | viral cytopathicity, MTT | MT-4, ROD | – | EC50 | > 125 µM
C#CCOc1ccc(C(=O)c2ccc(C(=O)Nc3cc(C)nn3-c3nc(C)c(CC)c(=O)[nH]3)cc2)cc1 | Leishmania amazonensis | alamarBlue | axenic amastigotes | 72 h | EC50 | 0.156 µM and 0.16 µM
Nc1nc2c(ncn2COC(CO)CO)c(=O)[nH]1 | human alphaherpesvirus 1 | viral replication | HEL cells | – | EC50 | 2 µM
CCCC(=O)OCSc1ccccc1C(=O)NCCC(N)=O | HIV-1 | viral replication | human monocytes/macrophages, subtype B BaL, CCR5-tropic | – | EC50 | 18.7 µM
Nc1ncnc2c1ncn2CCOCP(=O)(O)O | hepatitis B virus | viral replication | HepG2.2.15 | – | EC50 | 1 ± 0.2 µM
Cc1c(C(=O)C(=O)NCc2cn(CCCCCCCCCCCCCCn3cc(CNC(=O)C(=O)c4c(C)c(C(=O)Nc5ccc(F)c(F)c5)n(C)c4C)nn3)nn2)c(C)n(C)c1C(=O)Nc1ccc(F)c(F)c1 | hepatitis B virus | viral replication, chemiluminescence immunoassay, measured: secreted HBeAg | HBV-infected HepG2-NTCP cells | 7 days post-infection, dosed from 24 h pre-infection | EC50 | 0.098 ± 0.012 µM
O=c1[nH]c(=O)c2ncn(C[C@H](CF)OCP(=O)(O)O)c2[nH]1 | Human alphaherpesvirus 3 | plaque formation, inhibitor | HEL | – | EC50 | > 313 µM
CC1=C(/C=C/C(C)=C/C=C/C(C)=C/C(=O)Nc2ccc(O)cc2)C(C)(C)CCC1 | human respiratory syncytial virus | viral replication | BEAS-2B | – | EC50 | 3.6 µM
O=C(Cc1csc2nc(-c3ccc(Br)cc3)cn12)NN=C1CCCCC1 | feline coronavirus | viral cytopathic effect | CRFK | – | EC50 | > 100 µg/mL
CCC(C)(C)C(=O)O[C@H]1C[C@@H](C)C=C2C=C[C@H](C)[C@H](CC[C@@H]3C[C@@H](O)CC(=O)O3)[C@H]21 | hepatitis B virus | viral replication | HepG2.2.15 | – | EC50 | 2.5 ± 0.3 µM
O[C@@H](CS)[C@@H](O)CS (racemic) | Helicobacter pylori | Lewis b binding loss, radioligand binding | 17875/Leb | cells pre-exposed to compound | EC50 | 10000 µM
Cc1cccc(-c2ccc([C@@H]3[C@@H](CO)N4CCCCN(S(=O)(=O)c5cn(C)cn5)C[C@@H]34)cc2)c1 | Respiratory syncytial virus | cytopathic effect | A2 | – | EC50 | 3.9 µM
Cc1ccc(S(=O)(=O)N2C(=O)CSC2c2ccccc2[N+](=O)[O-])cc1 (stereo not shown) | HIV-2 | viral cytopathicity, MTT | MT-4, ROD | – | EC50 | > 125 µM
CCOP(=O)(OCC)[C@H]1C[C@@H](Cn2c(=O)n(C(=O)c3ccccc3)c(=O)c3ccccc32)ON1Cc1ccccc1 (relative stereo) | human alphaherpesvirus 3 | viral replication, plaque reduction | HEL, Oka TK+ | – | EC50 | 6.9 to 7.5 µM
Cc1ccc(S(=O)(=O)N2C(=O)CSC2c2ccc(O)cc2)cc1 (stereo not shown) | HIV-2 | viral cytopathicity, MTT | MT-4, ROD | – | EC50 | > 125 µM
COC(=O)[C@@H]1C(C=O)=Cc2cc3c(cc2[C@H]1c1cc(OC)c(OC)c(OC)c1)OCO3 | Leishmania infantum | parasite growth | mouse Splenocyte | 48 h, intracellular, amastigote | EC50 | 9.3 µM
O=C(N/N=C1\C(=O)Nc2ccc(Cl)cc21)N/N=C1\C(=O)Nc2ccc(Cl)cc21 | varicella-zoster virus | plaque formation | HEL, TK- | – | EC50 | > 20 µM
COc1ccc([C@@]23Oc4cc(OC)cc(OC)c4[C@]2(O)c2nc(-c4cccc(OC)c4)[nH]c(=O)c2[C@H]3c2ccccc2)cc1 | hepatitis C virus | viral infection, luciferase reporter HCVcc | Huh-7.5.1 | racemate | EC50 | ~0.5 µM

Molecule | tested on | assay | test system | conditions | measurement | result
CC(=CC(=O)NCCCCNc1cc(C(F)(F)F)nc2c(C(F)(F)F)cccc12)C(=O)NCCCCNc1cc(C(F)(F)F)nc2c(C(F)(F)F)cccc12 | Coxsackievirus B4 | viral cytopathic effect, MTS | HEp-2 | – | EC50 | 1.5 µM
Nc1nc(N)c2nc(CNc3ccc(C(=O)N[C@@H](CCC(=O)O)C(=O)O)cc3)cnc2n1 | human respiratory syncytial virus | viral replication | BEAS-2B | – | EC50 | 0.07 µM
Cc1ccc(NC(=O)C(C)Sc2nc3ccccc3n2Cc2ccccc2)c(Cl)c1 (stereo not shown) | Measles morbillivirus | viral replication | Alaska | – | EC50 | 0.5 µM
B1 | Borrelia garinii | cyst to spirochete conversion, flow cytometry | SKT-7.1 | 16 h | EC50 | 0.83 µM
Cc1ccc(S(=O)(=O)N2C(=O)CSC2c2ccccc2O)cc1 (stereo not shown) | herpes simplex virus 2 | viral cytopathicity | HEL, G | – | EC50 | > 100 µM
CSc1ccccc1C(=O)Oc1cc(C)nc(-n2nc(C)cc2N)n1 | Leishmania amazonensis | alamarBlue | axenic amastigotes | 72 h | EC50 | > 5 µM
Cc1ccc(S(=O)(=O)N2C(=O)CSC2c2cccc(Br)c2)cc1 (stereo not shown) | HIV-2 | viral cytopathicity, MTT | MT-4, ROD | – | EC50 | > 125 µM
Nc1ccc(S(=O)(=O)Nc2nccs2)cc1 | Human gammaherpesvirus 8 | latent viral DNA | BC-3 | – | EC50 | 6 ± 2 µg/mL
c1coc(-c2nn3c(Cn4cnc5ccccc54)nnc3s2)c1 | human respiratory syncytial virus | viral replication | HEp-2, Long | 96 h | EC50 | 0.66 µM
O=C(Cc1csc2nc(-c3ccc(Br)cc3)cn12)NN=C1CCC(c2ccccc2)CC1 (stereo not shown) | feline coronavirus | viral cytopathic effect | CRFK | – | EC50 | > 100 µg/mL
Nc1ncnc2c1ncn2C[C@H](O)CO | human respiratory syncytial virus | cytopathic effect | HeLa | – | EC50 | > 250 µM
Cc1ccc(S(=O)(=O)N2C(=O)CSC2c2ccc(Cl)cc2)cc1 (stereo not shown) | herpes simplex virus 2 | viral cytopathicity | HEL, G | – | EC50 | > 100 µM
COc1cc([C@@H]2c3cc4c(cc3C[C@H]3COC(=O)[C@@H]32)OCO4)cc(OC)c1OC | Leishmania infantum | intracellular amastigote growth, iRFP fluorescence | infected mouse splenocyte explants | 48 h | EC50 | > 100 µM
COC(=O)N[C@H](C(=O)N1CCC[C@H]1c1ncc(-c2ccc(-c3ccc(-c4cnc([C@@H]5CCCN5C(=O)[C@@H](NC(=O)OC)C(C)C)[nH]4)cc3)cc2)[nH]1)C(C)C | hepatitis C virus | viral replication, transient replicon | genotype 1b replicon wild type | – | EC50 | 2.6e-06 ± 3.3e-07 µM
Cc1oncc1C(=O)Nc1ccc(C(F)(F)F)cc1 | human coronavirus OC43 | cytopathic effect, CellTiter-Glo | Huh-7 | 7 d | EC50 | > 100 µM
Cc1ccc(S(=O)(=O)N2C(=O)CSC2c2ccc([N+](=O)[O-])cc2)cc1 (stereo not shown) | herpes simplex virus 2 | viral cytopathicity | HEL, G | – | EC50 | > 100 µM
CC(=O)N(CCc1ccc(-c2ccccc2)cc1)CCc1cn(C)c2ccccc12 | Human alphaherpesvirus 3 | viral plaque formation, plaque reduction | HEL, TK-deficient 07-1 | – | EC50 | 1.7 µM
CC(C)[C@@H]1NC(=O)[C@H](C)OC(=O)[C@@H](C(C)C)NC(=O)[C@@H](C(C)C)OC(=O)[C@H](C(C)C)NC(=O)[C@H](C)OC(=O)[C@@H](C(C)C)NC(=O)[C@@H](C(C)C)OC(=O)[C@H](C(C)C)NC(=O)[C@H](C)OC(=O)[C@@H](C(C)C)NC(=O)[C@@H](C(C)C)OC1=O | Feline infectious peritonitis virus | viral replication, visual scoring | – | 48 h | EC50 | 1.63 ± 0.1 µM
CN[C@@](C)(C[18F])C(=O)O | MDA-MB-468 tumour model | – | host not given, blood | 2 h, tumour-bearing | tracer uptake | 0.5 %ID/g
CCOC(=O)NC(=O)c1ccsc1NC(=O)c1nc2ccccc2s1 | Leishmania amazonensis | alamarBlue | axenic amastigotes | 72 h | EC50 | 0.52 ± 0.12 µM
CC(=Nc1ccccc1N)c1c(C)cc(=O)n(O)c1O | hepatitis B virus | viral replication, strand-preferential qPCR, measured: plus-strand DNA | HepDES19, genotype D | 3 days | EC50 | 0.69 ± 0.2 µM

Some of these lines once more:
Molecule | tested on | assay | test system | conditions | measurement | result
Nc1nc2c(ncn2COC(CO)CO)c(=O)[nH]1 | human alphaherpesvirus 1 | viral replication | HEL cells | – | EC50 | 2 µM
CC(=O)N(CCc1ccc(-c2ccccc2)cc1)CCc1cn(C)c2ccccc12 | Human alphaherpesvirus 3 | viral plaque formation, plaque reduction | HEL, TK-deficient 07-1 | – | EC50 | 1.7 µM
O[C@@H](CS)[C@@H](O)CS (racemic) | Helicobacter pylori | Lewis b binding loss, radioligand binding | 17875/Leb | cells pre-exposed to compound | EC50 | 10000 µM
Cc1ccc(NC(=O)C(C)Sc2nc3ccccc3n2Cc2ccccc2)c(Cl)c1 (stereo not shown) | Measles morbillivirus | viral replication | Alaska | – | EC50 | 0.5 µM
